Measured values of several laboratories.
Parts stem from different laboratories: compare values within a part only.

Set 1
Target: Eukaryotic initiation factor 4A-I (EIF4A1, Homo sapiens, UniProt P60842, residues 1-406, full length assumed)
Chain of UniProt P60842 (whole entry, looked up): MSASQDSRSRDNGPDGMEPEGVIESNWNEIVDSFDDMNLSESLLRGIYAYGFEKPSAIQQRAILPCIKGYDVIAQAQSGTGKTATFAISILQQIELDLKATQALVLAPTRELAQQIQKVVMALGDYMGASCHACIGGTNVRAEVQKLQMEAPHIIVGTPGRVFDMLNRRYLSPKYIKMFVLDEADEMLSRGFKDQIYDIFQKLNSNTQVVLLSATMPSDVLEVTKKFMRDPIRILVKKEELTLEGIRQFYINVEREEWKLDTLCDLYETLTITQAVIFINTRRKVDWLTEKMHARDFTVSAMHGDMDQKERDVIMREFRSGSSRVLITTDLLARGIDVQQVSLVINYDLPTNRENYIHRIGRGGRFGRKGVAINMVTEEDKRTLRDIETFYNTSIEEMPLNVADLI
Technique: RNA Bind-n-Seq
Form: RNA
Matrix: in vitro
Tested at: 15 pmol
Setting: 4-mer, random 30-nt RNA, single round
Added: DMSO vehicle, 2 mM AMP-PNP
Reference: input library
Reading: higher = stronger binding
Oligonucleotide | 4-mer enrichment [fold]
UGCG | 1.03
GGCG | 1.24
UCAG | 1.43
UGCA | 0.852
CUCA | 1.45
UUGG | 0.961
UACC | 1.41
GGAC | 1.08
GGCA | 1.01
GUCA | 1.34
GCCA | 1.43
UAGA | 0.828
GACU | 1.05
GAAA | 1.41
AAGU | 0.866
CAUC | 1.44
AUGG | 0.889
UGAA | 1.05
CACG | 1.14
ACAA | 1.05

Set 2
Target: Histone acetyltransferase KAT6A, winged helix 2, GST fusion (KAT6A, Homo sapiens, UniProt Q92794, residues 85-181)
Technique: protein binding microarray
Form: double-stranded DNA, one strand shown
Matrix: in vitro
Tested at: not given
Setting: 8-mer, flanks averaged, mean of 2 arrays, mostly near background
Reference: not given
Reading: higher = stronger binding
Residues (chain): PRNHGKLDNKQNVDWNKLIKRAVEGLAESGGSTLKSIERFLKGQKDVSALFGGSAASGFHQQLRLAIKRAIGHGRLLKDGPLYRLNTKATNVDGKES
Oligonucleotide | E-score
TGGGAACA | -0.0315
CGAAATCA | 0.156
GTGCCCGA | 0.0282
TAGTACTA | -0.00789
AGCTTGAC | -0.123
AACAACGA | -0.0777
CACGATTA | -0.00313
GTTATCCA | -0.168
AAGCCAAT | -0.0703
TTCTAGAA | 0.186
CTAATCAC | 0.15
CGTTTCAC | 0.02
GAAAATAC | -0.0199
GCAATTCC | -0.0301
ACCTTAAA | -0.0506
CATACCGG | -0.0525
CGTATACA | -0.0865
AATGGTAC | -0.125
GCTCCCCC | 0.00992
GTATACAA | 0.000435
CAGCTTCC | 0.00409
GGAAGGCA | 0.169
TACCCTGA | -0.0612
AGCGTCGA | 0.0302

Set 3
Target: Fragile X messenger ribonucleoprotein 1, C-terminal low-complexity region (Fmr1, Mus musculus, UniProt P35922)
Technique: RNA Bind-n-Seq
Form: RNA
Matrix: in vitro
Tested at: 200 nM
Setting: whole 134-nt RNA, ends assumed
Added: 150 mM KCl
Reference: input library
Reading: higher = stronger binding
All sequences stand within: GGGAGUUCUACAGUCCGACGAUC … UGGAAUUCUCGGGUGUCAAGG
Oligonucleotide | log2 enrichment
ACCAUGCAGGUGGGCAUCUUUGGGAAGUGGGGCAAGGGGGGGAUAGGGAGGGGGGUAACACUUUGGGAACAGGUGGUCCCAGGUCAUUUC | 0.69
CUCAAGUCCUGUGCUACACAUCGUAUGUACCGAAUCGGGGAAGGAAGGGAAGGGAAAGUAUUAUGUUACGCCGUUCGGAUCUGCACUUCC | 0.0631
AAGUCCUGUGCUACACAUCGUAUGUACCGAAUCGGGUUUUGGUUUUGGGGUUUUGGAAAGUAUUAUGUUACGCCGUUCGGAUCUGCACUU | -0.605
UGGGAGGUGGAUUUUGUUUAUUUUUUUAGCUGAUUUCCAGGGGUGGGAAUUUUUUUUUAAUAUGUGUCAUGAAUAAAGUUGUUUUUGAAA | 0.256
UAACUUUAGAGGAGGAUCUGAUGGAUAUGGCAGUGGACGUGGAUUUGGGGAUGGCUAUAAUGGGUAUGAAGGAGGACCUGGAGGUGGCAA | 0.18
GUCCUGUGCUACACAUCGUAUGUACCGAAUCGGGGUUUUUGGGGUGGGGUUUUUGGGGAAAGUAUUAUGUUACGCCGUUCGGAUCUGCAC | 0.762
UGGCCCUGGUGGCAUGCGGGGAGGAAGAGGUGGCCUCAUGGAUCGUGGUGGUCCCGGUGGAUUGUUCAGAGGUGGCCGUGGUGGAGACAG | 0.0944
UCCUGUGCUACACAUCGUAUGUACCGAAUCGGGAAAAAAAGGGUUUGGGAAAAAAAGGGAAAGUAUUAUGUUACGCCGUUCGGAUCUGCA | -0.419
CUCAAGUCCUGUGCUACACAUCGUAUGUACCGAAUCGGGGAGGGAGGGAGGGGAAAGUAUUAUGUUACGCCGUUCGGAUCUGCACUUCCA | 1.24
UUGCGGCAGCCGCCCCCUUCUGCGCGGUCACGCCGAGCCAGCGCCUGGGCCUGGAACCGGGCCGUAGCCCCCCCAGUUUCGCCCACCACC | -0.139

Set 4
Target: Krueppel-like factor 3, full length (KLF3, Homo sapiens, UniProt P57682, residues 1-345)
Chain of UniProt P57682 (whole entry, looked up): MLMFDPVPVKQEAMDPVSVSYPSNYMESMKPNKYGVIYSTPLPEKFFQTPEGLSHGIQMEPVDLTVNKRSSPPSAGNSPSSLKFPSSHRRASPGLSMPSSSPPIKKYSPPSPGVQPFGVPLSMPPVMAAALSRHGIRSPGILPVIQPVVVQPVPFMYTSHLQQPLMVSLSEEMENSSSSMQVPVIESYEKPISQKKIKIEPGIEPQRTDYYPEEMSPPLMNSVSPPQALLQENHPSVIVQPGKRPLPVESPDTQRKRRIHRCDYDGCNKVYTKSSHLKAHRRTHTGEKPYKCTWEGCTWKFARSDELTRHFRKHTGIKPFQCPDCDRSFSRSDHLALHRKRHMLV
Technique: protein-binding microarray
Form: hairpin DNA
Matrix: in vitro
Tested at: not given
Setting: whole hairpin DNA, median over replicate spots
Reference: not given
Reading: higher = stronger binding
Oligonucleotide | median fluorescence
GAGGCCGACCGCGCCCAGCCTCCTGGCTGGGCGCGGTCGGCCTCACACTC (5mC at 12 32 34) | 8730 a.u.
GAGGCCGACCGCCGCCAGCCTCCTGGCTGGCGGCGGTCGGCCTCACACTC (5mC at 31) | 8340 a.u.
GAGGCCCGCCGCGCCCAGCCTCCTGGCTGGGCGCGGCGGGCCTCACACTC | 8470 a.u.
GAGGCCGACCGCGCCGAGCCTCCTGGCTCGGCGCGGTCGGCCTCACACTC (5mC at 29) | 8620 a.u.
GAGGCCGACCACGCGCAGCCTCCTGGCTGCGCGTGGTCGGCCTCACACTC (5mC at 14) | 26800 a.u.
GAGGCCGACGGCGCCCAGCCTCCTGGCTGGGCGCCGTCGGCCTCACACTC (5mC at 9 35) | 8320 a.u.
GAGGCCGACCACGCCAAGCCTCCTGGCTTGGCGTGGTCGGCCTCACACTC | 8940 a.u.
GAGGCCGACCGCGCCAAGCCTCCTGGCTTGGCGCGGTCGGCCTCACACTC | 8510 a.u.
GAGGCCGACCGCGCCCAGCCTCCTGGCTGGGCGCGGTCGGCCTCACACTC (5mC at 10 12 34) | 8220 a.u.
GAGGCCGGCCGCGCCCAGCCTCCTGGCTGGGCGCGGCCGGCCTCACACTC (5mC at 37) | 8550 a.u.
GAGGCCGACCGTGCCCAGCCTCCTGGCTGGGCACGGTCGGCCTCACACTC | 8950 a.u.
GAGGCCGACCACGCCCGGCCTCCTGGCCGGGCGTGGTCGGCCTCACACTC (5mC at 16) | 9760 a.u.
GAGGCCAACCGCGCCCAGCCTCCTGGCTGGGCGCGGTTGGCCTCACACTC | 8550 a.u.
GAGGCCGACCACGCTCAGCCTCCTGGCTGAGCGTGGTCGGCCTCACACTC | 9200 a.u.
GAGGCCGCGCACGCCCAGCCTCCTGGCTGGGCGTGCGCGGCCTCACACTC | 10600 a.u.
GAGGCCGACCGCCCCCAGCCTCCTGGCTGGGGGCGGTCGGCCTCACACTC (5mC at 13) | 8480 a.u.
GAGGCCGATCGCGCCCAGCCTCCTGGCTGGGCGCGATCGGCCTCACACTC | 8200 a.u.
GAGGCCGACCGCGCCCAGCCTCCTGGCTGGGCGCGGTCGGCCTCACACTC (5mC at 12) | 8450 a.u.
GAGGCCGACCGCGCCCAGCCTCCTGGCTGGGCGCGGTCGGCCTCACACTC (5mC at 10 32) | 8760 a.u.
GAGGCCGACCGCACCCAGCCTCCTGGCTGGGTGCGGTCGGCCTCACACTC | 8830 a.u.
GAGGCCGACCGCCGCCAGCCTCCTGGCTGGCGGCGGTCGGCCTCACACTC (5mC at 13 31) | 8230 a.u.

Set 5
Target: Sal-like protein 4, full length isoform A (SALL4, Homo sapiens, UniProt Q9UJQ4, residues 1-1053)
Chain of UniProt Q9UJQ4 (whole entry, looked up): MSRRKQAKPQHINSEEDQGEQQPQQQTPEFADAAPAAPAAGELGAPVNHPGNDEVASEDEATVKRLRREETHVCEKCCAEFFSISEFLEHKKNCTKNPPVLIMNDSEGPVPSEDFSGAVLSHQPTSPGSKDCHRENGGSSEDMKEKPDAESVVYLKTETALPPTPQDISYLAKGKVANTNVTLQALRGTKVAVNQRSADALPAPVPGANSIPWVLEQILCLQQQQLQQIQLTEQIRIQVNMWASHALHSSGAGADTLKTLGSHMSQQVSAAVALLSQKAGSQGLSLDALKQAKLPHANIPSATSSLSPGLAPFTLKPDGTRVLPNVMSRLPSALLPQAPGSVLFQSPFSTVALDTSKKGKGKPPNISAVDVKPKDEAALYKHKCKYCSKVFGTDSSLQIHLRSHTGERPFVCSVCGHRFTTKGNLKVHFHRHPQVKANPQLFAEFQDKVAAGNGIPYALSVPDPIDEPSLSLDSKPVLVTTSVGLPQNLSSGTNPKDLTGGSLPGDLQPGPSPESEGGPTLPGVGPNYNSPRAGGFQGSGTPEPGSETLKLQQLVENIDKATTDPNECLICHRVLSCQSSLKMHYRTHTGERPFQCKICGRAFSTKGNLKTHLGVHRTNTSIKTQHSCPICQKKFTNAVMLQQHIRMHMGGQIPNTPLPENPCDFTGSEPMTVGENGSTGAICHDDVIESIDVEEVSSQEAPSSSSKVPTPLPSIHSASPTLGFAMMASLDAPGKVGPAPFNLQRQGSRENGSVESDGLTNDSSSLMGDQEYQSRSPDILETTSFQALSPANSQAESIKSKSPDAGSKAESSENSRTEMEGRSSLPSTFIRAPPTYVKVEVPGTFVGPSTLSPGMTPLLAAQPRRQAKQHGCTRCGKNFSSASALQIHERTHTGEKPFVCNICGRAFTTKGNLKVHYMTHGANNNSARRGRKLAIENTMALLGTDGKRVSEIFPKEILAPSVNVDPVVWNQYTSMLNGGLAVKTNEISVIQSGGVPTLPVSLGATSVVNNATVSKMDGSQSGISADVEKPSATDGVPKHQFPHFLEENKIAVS
Technique: universal PBM
Form: double-stranded DNA, one strand shown
Matrix: in vitro
Tested at: 600 nM
Setting: 8-mer, flanks averaged, mean of replicates
Reading: higher = stronger binding
Oligonucleotide | E-score
TCGCATCA | 0.0151
CTGGAGCA | -0.146
AAATGACA | 0.179
ACTAAGAA | 0.0688
GGAGAGAA | -0.153
ATGATTCA | 0.205
ATCAGTCA | 0.129
AAGTCCTA | -0.012
TCAGTCGA | -0.012
ACCCCGAC | -0.213
GGATCTAA | -0.0167
GCTTCGCA | -0.0969
TGCTTCAA | 0.109
CAGAACCA | -0.0974
CACGTGAG | -0.147
CCCAAAGG | -0.238
GCGTCCCA | -0.348
ACCAACGC | -0.103
ATGAACTG | 0.181
CGGTATGC | -0.187
ACGGGCTG | -0.305
CAGCAGCC | -0.287
CAGGATTC | 0.0565
ACGAGTAC | 0.0353
AGGTGACG | -0.262

Some of these lines once more (set 2):
Oligonucleotide | E-score
CATACCGG | -0.0525
AAGCCAAT | -0.0703
AGCTTGAC | -0.123
GTTATCCA | -0.168
CGTTTCAC | 0.02
CAGCTTCC | 0.00409
